Measured values of several laboratories.
Each numbered part is a random draw from the data of one study; scales do not carry over between parts.

Block 1
Target: RING finger protein unkempt homolog, zinc fingers 1-6, GST-SBP tag (UNK, Homo sapiens, UniProt Q9C0B0, residues 30-357)
Method: RNA Bind-n-Seq
Molecule type: RNA
Medium: in vitro
Tested at: not given
Setting: RNA with constant flanks, human and mouse sites, ends assumed
Reference: input RNA pool
Direction: higher = stronger binding
Target sequence (chain): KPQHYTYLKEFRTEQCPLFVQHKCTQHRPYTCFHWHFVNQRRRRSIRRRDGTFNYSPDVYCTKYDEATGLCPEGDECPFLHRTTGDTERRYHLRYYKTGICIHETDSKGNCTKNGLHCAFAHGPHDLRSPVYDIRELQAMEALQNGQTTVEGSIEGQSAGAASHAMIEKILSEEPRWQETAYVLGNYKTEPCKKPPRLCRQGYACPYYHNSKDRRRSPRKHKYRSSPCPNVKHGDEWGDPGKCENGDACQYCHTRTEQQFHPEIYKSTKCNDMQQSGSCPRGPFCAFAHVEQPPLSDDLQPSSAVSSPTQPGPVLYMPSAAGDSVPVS
Oligonucleotide	bound/input enrichment [ratio]
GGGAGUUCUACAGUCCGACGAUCAGGUUUCCGGUUCCGGUGUAACGUUCGGGCUCCGUCUCAGGGGCUGAAGUUUGUGAGGUGUAGUAUUGAGUCCUGUUUGAGCUAUUGUUCUCUUUUUCCUGAAAAAUGGCACUGUCAAAGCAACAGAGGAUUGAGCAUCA	0.219
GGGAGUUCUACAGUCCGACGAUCUGUUUCUUUUGCUGGUGAGGUUCUUUUGUUUUUUGUUUUGGUUGUUUUUUUUUUGUUUGUUUGUUUCUAAUUGGGGCAGAUUUGGGCUCCCCAUGCAGCCCUGCUGGCCUGGUGUUCCCUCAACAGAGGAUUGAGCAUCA	3.71
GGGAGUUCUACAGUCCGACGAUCCCUGCACGCCCCGAGGCGGACCCCGGCUCUGACUGCUCCCCUGGCCGCGGGCUUCUCGACUGGGACGCGGCGCGAGGAGGGAGCGCGGCGGCCCCGAGUCUCCCUGAGCCAUGGGCAACGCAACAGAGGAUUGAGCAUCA	0.161
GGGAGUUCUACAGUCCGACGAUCAUUCAGGCACAACUGACUGGUUCACAGCACUCCUUACAUAGUUAUCUAUCAAAUUCAAGUGUAGUUAAUUUUCAGGAAACAACCAGGCAGUCAUCUUUAUCCUGUAGCCCAAUUGGAGAUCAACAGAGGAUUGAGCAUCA	5.74
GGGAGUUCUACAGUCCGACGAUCGAAGUUCCCCAUUGUCACUGAGAACCACCAAAUUUGACUUUCACAUUUGGUCUCAGAAUUUAGGUUCCUGCCCUGUUGUUUUUCUUUCUUUUUCUUUUUUUUUUUUCUCCCCUCCCCUUUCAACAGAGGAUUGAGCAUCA	4.19
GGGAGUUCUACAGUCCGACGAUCGAUGUGGCAUGGUUCCUGACGGAAACUUCCCCCUUCAUGUGGUCGAAUCUGGGCAUUGGCCUAGCAAUUUCUCUGUCUGUGGUUGGAGCAGCCUGGGGAAUCUAUAUAACCGGCUCAUCCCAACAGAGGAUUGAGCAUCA	0.211
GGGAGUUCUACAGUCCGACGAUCGUGUUGAACUUCACAGCCUUGCUCAUUGAGUACAGCUUUUCCCGGCAUCUGUACAGUUCCAUAGAGCAUUUGACAACUUUAUUGGCUUCCUCUGAUAUGCAAGUGGUGCUGGCAGUCCUCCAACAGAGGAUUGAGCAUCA	0.642
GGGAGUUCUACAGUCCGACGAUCCCUGAGCUGUUCACAAAGAGAGAACUAGGCAAGCCUAAGAACGAUGACACUCCUGAAGACUUUCUGACAGACCAACAGGAUGAGAAGCCGGAGCAUUCAGAAGAGAAGAGCUUUAGAGAGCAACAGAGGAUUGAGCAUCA	0.27
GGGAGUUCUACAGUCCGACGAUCACCUUGGACGCCGCAAGAGAAGCUGUCAAGCCCCGCAGGCUCUGAUUCGGCGCCCUCCGCGUUCCUCGGCUGCUCCCGGCUUCCCUGUGCCUCGGUGGAGUAUUUGCGUUCGGGGCUGGGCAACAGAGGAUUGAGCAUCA	0.057
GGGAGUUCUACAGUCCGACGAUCUCACGCUCAAGCCUUAAAAAUCACAAAGGAAUCCACAUGGGGGAGAAGCCCUAUAAAUGCAGCUAUUGUGAGAAAUCUUUCAACUACAGUUCUGCCCUUGAACAACAUAAAAGGAUUCAUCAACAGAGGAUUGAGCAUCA	0.112
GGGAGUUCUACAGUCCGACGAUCGAGGUGUUGGAAGCCUUGUGUGAUGGUAGCCUAGGAGACUGUAAAGAAGCUGCCGAAGCCUACAGAGCAAGUUGUCAUAAGCUUUUCCCUUAUGCUUUGGCUUUCAUGCCUCCUGGAUACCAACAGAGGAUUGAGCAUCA	0.108

Block 2
Target: Histone acetyltransferase KAT6A, winged helix 2, GST fusion (KAT6A, Homo sapiens, UniProt Q92794, residues 85-181)
Method: protein binding microarray
Molecule type: double-stranded DNA, one strand shown
Medium: in vitro
Tested at: not given
Setting: 8-mer, flanks averaged, mean of 2 arrays, mostly near background
Reference: not given
Direction: higher = stronger binding
Target sequence (chain): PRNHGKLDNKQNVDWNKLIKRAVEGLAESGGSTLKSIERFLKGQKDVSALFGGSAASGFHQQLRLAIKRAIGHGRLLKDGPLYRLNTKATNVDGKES
Oligonucleotide	E-score
GATTAATA	0.044
ACAACAAC	0.147
AGCAGAAA	0.172
CCTATCAA	0.0893
CTTAAGAA	0.0711
CTGATCAA	0.0345
AGCTGACC	-0.0188
ATACACGC	-0.0402
CGGAATAG	0.075
ATAATCAG	0.0232
CAGACTTA	-0.254
GAATAACA	0.132
AATCGGAG	0.0956
ATCGTCCA	-0.13
ATTTCAGA	-0.00036
AGGGGGGA	-0.0246
CACCAGAC	-0.0212
TATACGCA	0.159
CATAGGCA	-0.00967
TGTGCAAA	-0.252
TAGAGACA	0.0198

Block 3
Target: Interferon regulatory factor 5, full length, phosphomimetic (IRF5, Homo sapiens, UniProt Q13568-2, residues 1-514, S451D/S453D/S456D/S462D)
Method: protein-binding microarray
Molecule type: double-stranded DNA, one strand shown
Medium: in vitro
Tested at: 940 nM top
Setting: 60-bp whole probe
Added: salmon DNA 0.4 mg/ml
Reference: random background probes
Direction: higher = stronger binding
All sequences stand within: GCCTAGCAC … GTCTTGATTCGCTTGACGCTGCTG
Oligonucleotide	fitted relative affinity
TTTGGTTTCGGTTTCGGTTAGTGCTAG	19.9 z-score
GACGATATCAGTATCGAGATGTGCTAG	1.38 z-score
GACGAACTGGGGTATCGAGAGGTGCTA	0.42 z-score
TCGGTTTCCAAATTGTCTCTGTGCTAG	1.71 z-score
GACGATCTCAGTTTCGAGTCGTGCTAG	6.7 z-score
TTGGGTTTCCTTCTCCTTTAGTGCTAG	1.54 z-score
GACGATATAGGGTTTCGAGACGTGCTA	1.1 z-score
GTTTGTGTGTGTATGTGGTCGTGCTAG	0.274 z-score
TTAGGACTGGGAATCGGTTAGTGCTAG	-0.342 z-score
GACGGTATCTACACTGGGGACGTGCTA	0.641 z-score
TTGGGTTTCGGGTATCGGTTAGTGCTA	9.35 z-score
TTGAACTTCGGCCTCTAGGTGTGCTAG	-0.304 z-score
TCAAGTGTGCCATATTTAACTGTGCTA	0.137 z-score
TCAGCTGTGGGTTTGAGACTGTGCTAG	-0.77 z-score
GACTGTTTCGGTCTCGGGACGTGCTAG	7.71 z-score
TTAGATATCAGTACCGATTAGTGCTAG	0.078 z-score
TGAGATATCGGGACTGGATTAGTGCTA	-0.112 z-score
TTAGGTATAGGGTATCGGTTAGTGCTA	1.82 z-score

Block 4
Target: RNA binding protein fox-1 homolog 2, RRM domain, GST-SBP tag (RBFOX2, Homo sapiens, UniProt O43251-10, residues 100-194)
Method: RNA Bind-n-Seq
Molecule type: RNA
Medium: in vitro
Tested at: 365 nM
Setting: natural RNA segment, single round, ends assumed
Reference: no-protein control
Direction: higher = stronger binding
Residues (chain): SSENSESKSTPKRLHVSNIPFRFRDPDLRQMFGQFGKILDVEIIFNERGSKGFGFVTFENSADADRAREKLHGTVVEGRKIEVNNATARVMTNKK
Oligonucleotide	RBNS enrichment (R)
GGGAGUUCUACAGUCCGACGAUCUCUCCUGCCCAUCAUGUUUGGCCCACUAGAUGAAGCUGUACUCAGCAAUUUAGGGAAUGUAACCCUUCUCAGAACUGGCCAUUUUCAGGGGAAGCUUGGGAGAGCAAUAGUGGAAUUCUCGGGUGCCAA	0.483
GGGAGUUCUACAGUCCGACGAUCUUAGUCAACAGAAACUAUUUUAGGGUAUGUUUAGUUGGUAAAUGCUUCAUGUUCAUGGAUGACACAAUGUUUUUGCAAAAAAACCCUGAAACUAUUCUUUGGCAUUGGUGUGGAAUUCUCGGGUGCCAA	0.478
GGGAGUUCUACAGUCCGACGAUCUUCUAGCCUAUUUACCUGCAGGCUGAGCCACUCUCUUCCCUUUCCCCAGCAUCACUCCCCAAGGAAGAGCCAAUGUUUUCCACCCAUAAUCCUUUCUGCCGACCCCUAGUUGGAAUUCUCGGGUGCCAA	1.62
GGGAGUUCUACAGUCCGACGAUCUGGCCUCACCCUCCCACCCCAUGUAAAUAUUACUCUGUCCUCUGGGGGGCGCUCUAGGGAGCCCCUUGUGCAGAUGCUCUUUAAAUAAUAAAGGUGGUUUUGAUUAAUGGUGGAAUUCUCGGGUGCCAA	0.352
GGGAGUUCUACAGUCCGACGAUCGCCUUUUUAAAAGAGGGAUGGGAGGAUAUUACAGUAAGAAAUUAGGCUUUCUAAAAGUAUGAAACAUCCUUCAACUGGGCUCUCUUGUUAAUAGGACAUCAUAUGGUAAUUGGAAUUCUCGGGUGCCAA	0.295
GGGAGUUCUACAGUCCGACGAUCUGAAUCAGUAGCUGUGAAAAUAACUGUCACCACAAAAUUACUGUCAUCGAACAUUGACGCAGGUGAUGCUACUCUGGAAGGACCUCAGGGCAGCCAGGUGUGCGUGUCUUUGGAAUUCUCGGGUGCCAA	0.474
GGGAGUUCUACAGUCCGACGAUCACGACGUCCAUCCGUCCCACAGAGUGGGACCGACCGCCCCUGCUGCUCCAGCCAGGGCCCCUGCGCUUCCUGUGCAGACAGGAAGCUGUGUGGGAGACUGUCAUUUGGGAUGGAAUUCUCGGGUGCCAA	0.161
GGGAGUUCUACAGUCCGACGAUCCCUUUGAGCUAAACUAAAUUAAAAUUACAGUAUUUAAUAAUUCUUUGGGCAUUUUUAAGAGGUCUGAAUUUGUAUUUUUCUUCAUUUUUGAAACUUUACAUUUGUUGACUUGGAAUUCUCGGGUGCCAA	0.553
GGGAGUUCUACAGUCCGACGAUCGCAUGGCGCCUGCUGGAGGAGGAGAGAGCUCUGCUGGCAUGAGCCACAGUUUCUUGACUGGAGGCCAUCAACCCUCUUGGUUGAGGCCUUGUUCUGAGCCCUGACAUGUGUGGAAUUCUCGGGUGCCAA	0.929
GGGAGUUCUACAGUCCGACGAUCUGUGUGUGUGUGUGUGUGCGUGCGCGCGCGCGUGCGCACGCACGUGCAUGCACAUGCUAUGUAUUGGGUCCCUCCAAGGAUGAACCCUCUCUUUGGCUUAGAAGGCACUCUGGAAUUCUCGGGUGCCAA	0.22
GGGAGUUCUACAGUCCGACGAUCACCCAAGACUUAUUCAAAGCUGUGGCUAAGAGCAGAGACGCUGUUCACACAACGCCUCACCACCACCAGCCUCCAGGCAAAACCAGAUAGGAUGCACCGUUCUAGCACCUUGGAAUUCUCGGGUGCCAA	0.27
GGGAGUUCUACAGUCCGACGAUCAGGGGAGGCCUGACAGAGCCCAAGAAUGAGGACACCCUCGGCACGGGAACCCAUUCACUUAGCGUUUGCUCCAGUAGCUUUCCCUCUGCUACCAAUGCAGAUAAACGCGGUGGAAUUCUCGGGUGCCAA	0.646

Repeated from above (block 4):
Oligonucleotide	RBNS enrichment (R)
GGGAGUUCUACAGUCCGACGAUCUGGCCUCACCCUCCCACCCCAUGUAAAUAUUACUCUGUCCUCUGGGGGGCGCUCUAGGGAGCCCCUUGUGCAGAUGCUCUUUAAAUAAUAAAGGUGGUUUUGAUUAAUGGUGGAAUUCUCGGGUGCCAA	0.352
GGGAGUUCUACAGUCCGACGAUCGCCUUUUUAAAAGAGGGAUGGGAGGAUAUUACAGUAAGAAAUUAGGCUUUCUAAAAGUAUGAAACAUCCUUCAACUGGGCUCUCUUGUUAAUAGGACAUCAUAUGGUAAUUGGAAUUCUCGGGUGCCAA	0.295
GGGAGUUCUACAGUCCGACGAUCUGAAUCAGUAGCUGUGAAAAUAACUGUCACCACAAAAUUACUGUCAUCGAACAUUGACGCAGGUGAUGCUACUCUGGAAGGACCUCAGGGCAGCCAGGUGUGCGUGUCUUUGGAAUUCUCGGGUGCCAA	0.474
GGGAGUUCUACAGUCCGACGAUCACGACGUCCAUCCGUCCCACAGAGUGGGACCGACCGCCCCUGCUGCUCCAGCCAGGGCCCCUGCGCUUCCUGUGCAGACAGGAAGCUGUGUGGGAGACUGUCAUUUGGGAUGGAAUUCUCGGGUGCCAA	0.161
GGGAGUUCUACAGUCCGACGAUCCCUUUGAGCUAAACUAAAUUAAAAUUACAGUAUUUAAUAAUUCUUUGGGCAUUUUUAAGAGGUCUGAAUUUGUAUUUUUCUUCAUUUUUGAAACUUUACAUUUGUUGACUUGGAAUUCUCGGGUGCCAA	0.553
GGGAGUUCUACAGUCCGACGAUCGCAUGGCGCCUGCUGGAGGAGGAGAGAGCUCUGCUGGCAUGAGCCACAGUUUCUUGACUGGAGGCCAUCAACCCUCUUGGUUGAGGCCUUGUUCUGAGCCCUGACAUGUGUGGAAUUCUCGGGUGCCAA	0.929
